{"data": "Literature values, collected from citations in different studies", "note": "Numbered parts are unrelated; values within a part may stem from several laboratories. ± gives the spread as reported.", "UniProt Q9UNQ0, sequence (whole entry, looked up)": "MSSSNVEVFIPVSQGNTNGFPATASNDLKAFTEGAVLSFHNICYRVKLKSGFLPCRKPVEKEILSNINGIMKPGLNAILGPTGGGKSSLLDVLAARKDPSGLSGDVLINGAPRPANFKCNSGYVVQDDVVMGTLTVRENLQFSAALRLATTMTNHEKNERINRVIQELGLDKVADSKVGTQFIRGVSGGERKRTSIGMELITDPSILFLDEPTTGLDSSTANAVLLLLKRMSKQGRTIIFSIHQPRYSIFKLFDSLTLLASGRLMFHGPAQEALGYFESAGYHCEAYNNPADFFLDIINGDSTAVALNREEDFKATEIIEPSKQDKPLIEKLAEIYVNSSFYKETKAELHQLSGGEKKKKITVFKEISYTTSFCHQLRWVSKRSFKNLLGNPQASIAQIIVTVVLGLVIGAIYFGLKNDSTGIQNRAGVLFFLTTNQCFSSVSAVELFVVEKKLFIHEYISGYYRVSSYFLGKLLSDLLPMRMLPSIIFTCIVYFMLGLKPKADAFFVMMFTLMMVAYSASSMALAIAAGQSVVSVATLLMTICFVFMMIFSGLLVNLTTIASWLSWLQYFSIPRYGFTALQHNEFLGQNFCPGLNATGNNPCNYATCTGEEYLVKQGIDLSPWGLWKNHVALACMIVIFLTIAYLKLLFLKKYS", "UniProt Q9ZMY2, sequence (whole entry, looked up)": "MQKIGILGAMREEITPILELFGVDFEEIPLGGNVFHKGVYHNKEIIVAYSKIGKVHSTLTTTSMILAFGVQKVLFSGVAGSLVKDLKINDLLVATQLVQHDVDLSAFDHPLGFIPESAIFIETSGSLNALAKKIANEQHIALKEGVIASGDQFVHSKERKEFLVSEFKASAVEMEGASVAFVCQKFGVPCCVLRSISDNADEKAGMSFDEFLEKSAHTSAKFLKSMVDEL", "UniProt O15244, sequence (whole entry, looked up)": "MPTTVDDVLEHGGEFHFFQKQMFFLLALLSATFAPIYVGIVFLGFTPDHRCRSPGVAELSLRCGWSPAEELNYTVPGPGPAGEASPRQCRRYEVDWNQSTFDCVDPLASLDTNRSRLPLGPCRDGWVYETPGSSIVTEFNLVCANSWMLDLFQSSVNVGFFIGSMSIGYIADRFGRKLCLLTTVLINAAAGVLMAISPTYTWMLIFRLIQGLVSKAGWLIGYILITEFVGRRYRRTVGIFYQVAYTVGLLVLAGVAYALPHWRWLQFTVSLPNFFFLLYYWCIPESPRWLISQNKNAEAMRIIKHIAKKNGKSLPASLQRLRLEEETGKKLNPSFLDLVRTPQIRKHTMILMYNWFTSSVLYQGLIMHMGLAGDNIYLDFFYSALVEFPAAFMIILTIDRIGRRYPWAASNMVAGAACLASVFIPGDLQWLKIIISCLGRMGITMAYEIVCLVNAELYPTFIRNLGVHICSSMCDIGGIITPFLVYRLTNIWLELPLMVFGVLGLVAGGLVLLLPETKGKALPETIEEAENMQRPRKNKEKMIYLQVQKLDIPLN", "UniProt P13267, sequence (whole entry, looked up)": "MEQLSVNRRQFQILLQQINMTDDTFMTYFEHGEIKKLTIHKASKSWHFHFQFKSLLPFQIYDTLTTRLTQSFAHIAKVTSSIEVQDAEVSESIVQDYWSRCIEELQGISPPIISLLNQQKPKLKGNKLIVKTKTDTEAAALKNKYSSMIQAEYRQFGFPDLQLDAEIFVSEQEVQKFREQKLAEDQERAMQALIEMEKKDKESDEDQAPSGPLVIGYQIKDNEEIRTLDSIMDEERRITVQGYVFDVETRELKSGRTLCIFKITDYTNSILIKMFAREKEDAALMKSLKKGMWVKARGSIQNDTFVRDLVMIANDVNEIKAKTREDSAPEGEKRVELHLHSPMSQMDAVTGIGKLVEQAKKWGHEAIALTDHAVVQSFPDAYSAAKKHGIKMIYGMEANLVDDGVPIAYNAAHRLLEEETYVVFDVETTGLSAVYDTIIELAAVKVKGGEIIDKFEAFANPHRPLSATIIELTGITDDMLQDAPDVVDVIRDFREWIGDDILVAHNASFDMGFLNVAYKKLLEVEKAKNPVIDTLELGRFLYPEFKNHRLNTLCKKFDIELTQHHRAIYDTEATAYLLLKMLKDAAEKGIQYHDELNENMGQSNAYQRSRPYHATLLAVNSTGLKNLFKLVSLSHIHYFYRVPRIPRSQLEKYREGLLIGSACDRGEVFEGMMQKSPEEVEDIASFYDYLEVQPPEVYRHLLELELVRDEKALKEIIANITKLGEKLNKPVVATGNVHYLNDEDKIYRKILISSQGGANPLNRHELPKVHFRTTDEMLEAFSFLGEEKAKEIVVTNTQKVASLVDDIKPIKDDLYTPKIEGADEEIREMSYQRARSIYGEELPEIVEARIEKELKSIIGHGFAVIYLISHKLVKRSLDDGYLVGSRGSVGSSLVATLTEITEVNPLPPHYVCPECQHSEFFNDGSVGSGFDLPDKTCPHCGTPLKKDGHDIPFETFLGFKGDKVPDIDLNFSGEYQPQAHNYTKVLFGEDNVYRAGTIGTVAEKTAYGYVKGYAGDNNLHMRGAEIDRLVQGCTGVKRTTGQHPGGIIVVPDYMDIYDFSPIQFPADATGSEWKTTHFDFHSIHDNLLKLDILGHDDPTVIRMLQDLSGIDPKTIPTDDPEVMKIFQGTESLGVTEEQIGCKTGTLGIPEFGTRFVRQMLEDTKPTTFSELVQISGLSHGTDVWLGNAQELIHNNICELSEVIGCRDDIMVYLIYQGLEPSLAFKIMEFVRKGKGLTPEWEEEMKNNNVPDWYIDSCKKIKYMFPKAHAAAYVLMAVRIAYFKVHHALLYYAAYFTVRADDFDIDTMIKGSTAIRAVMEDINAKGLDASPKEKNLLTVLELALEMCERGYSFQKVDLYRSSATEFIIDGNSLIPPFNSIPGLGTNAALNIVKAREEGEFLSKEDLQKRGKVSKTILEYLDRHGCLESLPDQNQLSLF"}
{"data": "Study 1", "target": "HLA class I histocompatibility antigen, A alpha chain, allele A*26:03 (Homo sapiens, UniProt P04439)", "read-out": "peptide-MHC binding", "form": "peptide"}
{"Molecule": "FLCPTFTLK", "IC50 [µM]": "> 20"}
{"Molecule": "TQRKKTLGF", "IC50 [µM]": 0.068}
{"Molecule": "IQFMHEQGY", "IC50 [µM]": "> 20"}
{"Molecule": "IEFIEVVRL", "IC50 [µM]": "> 20"}
{"Molecule": "GLYRLNFRR", "IC50 [µM]": "> 20"}
{"Molecule": "RELYYRLKF", "IC50 [µM]": "> 20"}
{"Molecule": "GEGSGARLL", "IC50 [µM]": "> 20"}
{"Molecule": "VLYCVHQEI", "IC50 [µM]": "> 20"}
{"Molecule": "FMKVKFEAL", "IC50 [µM]": "> 20"}
{"Molecule": "YMREVGAAL", "IC50 [µM]": "> 20"}
{"Molecule": "LYNTIAVLY", "IC50 [µM]": "> 20"}
{"Molecule": "IATLYCVHQK", "IC50 [µM]": "> 20"}
{"Molecule": "HEGDIVPLF", "IC50 [µM]": "> 20"}
{"Molecule": "RSLYNTVAVLY", "IC50 [µM]": "> 20"}
{"Molecule": "IEAGDEVFF", "IC50 [µM]": "> 20"}
{"Molecule": "YISPIFIPM", "IC50 [µM]": 0.008}
{"Molecule": "SQIETGTPF", "IC50 [µM]": 0.07}
{"Molecule": "RSLFNTVATLY", "IC50 [µM]": "> 20"}
{"Molecule": "IYTVIYYIF", "IC50 [µM]": "> 20"}
{"Molecule": "KRLLLKLDF", "IC50 [µM]": "> 20"}
{"Molecule": "ALFHKVQSY", "IC50 [µM]": "> 20"}
{"Molecule": "ETALAIIRR", "IC50 [µM]": 1.91}
{"Molecule": "SHEGEGIPL", "IC50 [µM]": "> 20"}
{"Molecule": "ETHDRGFAM", "IC50 [µM]": 0.016}
{"Molecule": "LLLLISLVY", "IC50 [µM]": "> 20"}
{"data": "Mixed results"}
{"Substance": "Cc1ncc2n1-c1ccc(Cl)cc1C(c1ccccc1F)=NC2", "test system": "rat", "endpoint": "plasma clearance", "value": "44.4 mL/min/kg"}
{"Substance": "CCCCC/C=C\\C/C=C\\C/C=C\\C/C=C\\CCCC(=O)NCCCl", "target or system": "cannabinoid receptor CB1", "endpoint": "Ki", "value": "1.4 nM"}
{"Substance": "CSC[C@H]1CN(Cc2c[nH]c3c(N)ncnc23)C[C@@H]1O", "target or system": "Aminodeoxyfutalosine nucleosidase (Helicobacter pylori, UniProt Q9ZMY2)", "conditions": "initial complex", "endpoint": "Ki", "value": "0.19 ± 0.03 nM"}
{"Substance": "CC(C)n1c(/C=C/C(O)CC(O)CC(=O)O)c(-c2ccc(F)cc2)c2ccccc21 (stereo not drawn)", "target or system": "OATP1B1 polymorphisms", "test system": "human", "endpoint": "pharmacokinetics", "value": "no effect"}
{"Substance": "CCN(CC)CCCC(C)Nc1ccnc2cc(Cl)ccc12 (stereo not drawn)", "target or system": "SLC22A2 (Homo sapiens, UniProt O15244)", "test": "transport, inhibitor", "conditions": "OCT2, literature value, added: MPP+ substrate", "endpoint": "IC50", "value": "1100 µM"}
{"Substance": "C[C@]12CC[C@@H]3c4ccc(O)cc4C[C@@H](CCCCCCCCC[S+]([O-])CCCC(F)(F)C(F)(F)F)[C@H]3[C@@H]1CC[C@@H]2O (stereo partly drawn)", "test system": "human, ER+ breast cancer", "conditions": "dose not given, initial endocrine therapy", "endpoint": "median progression-free survival", "value": "6.5 months"}
{"Substance": "CC1OC1c1ccccc1C=CC(=O)O[C@H](C)[C@H](N)C(=O)O (stereo partly drawn)", "target or system": "Tetranychus cinnabarinus", "test": "acaricidal activity", "endpoint": "LC50", "value": "48.5 mg/L"}
{"Substance": "CCCSc1ccc2nc(NC(=O)OC)[nH]c2c1", "target or system": "Trichuris muris", "test system": "L3 larvae", "endpoint": "IC50", "value": "200 µg/mL"}
{"Substance": "COCCN(CCOC)N=O", "test": "item: nasal tumours and hepatocellular carcinomas", "test system": "Sprague-Dawley rats", "conditions": "dose not given", "endpoint": "tumour incidence", "value": "100%"}
{"Substance": "COC(=O)[C@@H]1[C@H]2CC[C@@H](C[C@@H]1O)N2C", "target or system": "monoclonal antibody", "test": "binding", "conditions": "room temperature", "endpoint": "Kd", "value": "10 to 100 µM"}
{"Substance": "C[C@@H](O)[C@@H]1NC(=O)[C@H](CCCCN)NC(=O)[C@@H](Cc2c[nH]c3ccccc23)NC(=O)[C@H](Cc2ccccc2)NC(=O)[C@@H](NC(=O)[C@H](N)Cc2ccccc2)CSSC[C@@H](C(=O)N[C@H](CO)[C@@H](C)O)NC1=O", "test system": "healthy volunteers", "conditions": "intravenous, 25 200 µg", "endpoint": "clearance", "value": "10 to 14 L/h"}
{"Substance": "O=c1c(O)c(-c2ccc(O)c(O)c2)oc2cc(O)cc(O)c12", "target or system": "PRV", "test": "viral replication", "endpoint": "IC50", "value": "2.62 µM"}
{"Substance": "Cc1nc(NC(=O)N2CCC[C@H]2C(N)=O)sc1-c1ccnc(C(C)(C)C(F)(F)F)c1", "test system": "human patients", "conditions": "single agent", "endpoint": "maximum tolerated dose", "value": "400 mg once daily"}
{"Substance": "CN(N=O)c1ccc(F)cc1", "test": "carcinogenicity", "test system": "F344 rat, male", "conditions": "oesophageal tumours", "endpoint": "TD50", "value": "0.255 mg/kg/day"}
{"Substance": "COc1ccc2c(c1)[C@]13CCCC[C@@H]1[C@H](C2)N(C)CC3", "test system": "rat", "endpoint": "blood-to-plasma ratio", "value": 1.7}
{"Substance": "Thimerosal", "target or system": "Caco-2", "endpoint": "CC50", "value": "13.5 ± 1.23 µM"}
{"Substance": "C=CC(N)=O", "test": "reaction with 3-mercaptopropionic acid", "conditions": "pH 8.1, 30 °C", "endpoint": "second-order rate constant", "value": "0.0046 M⁻¹ s⁻¹"}
{"Substance": "CCCCC/C=C\\C/C=C\\C/C=C\\C/C=C\\CCCC(=O)N[C@H](C)CO", "target or system": "cannabinoid receptor CB1", "endpoint": "Ki", "value": "17.9 nM"}
{"Substance": "C[C@@H](N)C1CCN(S(=O)(=O)c2cccc3cnccc23)CC1", "test system": "rat", "endpoint": "NOAEL", "value": "25 mg/kg/day"}
{"Substance": "CO/N=C(\\C(=O)N[C@@H]1C(=O)N2C(C(=O)O)=C(CSc3nc(=O)c(=O)[nH]n3C)CS[C@H]12)c1csc(N)n1", "target or system": "Escherichia coli", "test system": "AR0346 colistin resistant", "endpoint": "MIC", "value": "> 32 µg/mL"}
{"Substance": "CC(C)CN(C[C@@H](O)[C@H](Cc1ccccc1)NC(=O)O[C@H]1CO[C@H]2OCC[C@H]21)S(=O)(=O)c1ccc(N)cc1", "target or system": "ABCG2 (Homo sapiens, UniProt Q9UNQ0)", "test": "transport activity, inhibitor", "conditions": "added: estrone sulfate", "endpoint": "IC50", "value": "75 µM"}
{"Substance": "COc1c(/C=C/c2ccc(NS(C)(=O)=O)cc2)cc(-n2ccc(=O)[nH]c2=O)cc1C(C)(C)C", "target or system": "hepatitis C virus", "test": "viral replication, replicon", "test system": "genotype 1b", "endpoint": "EC50", "value": "1.8 nM"}
{"Substance": "CN(C)c1cc(NC(=O)CNC(C)(C)C)c(O)c2c1C[C@H]1C[C@H]3[C@H](N(C)C)C(O)=C(C(N)=O)C(=O)[C@@]3(O)C(O)=C1C2=O", "target or system": "Escherichia coli", "test system": "AR0346 colistin resistant", "endpoint": "MIC", "value": "< 0.5 µg/mL"}
{"Substance": "Cc1nc(Nc2ncc(C(=O)Nc3c(C)cccc3Cl)s2)cc(N2CCN(CCO)CC2)n1", "test system": "human children", "conditions": "twice daily single agent", "endpoint": "maximum tolerated dose", "value": "85 mg/m² per dose"}
{"Substance": "CNC(C)C(=O)c1cccc(Cl)c1 (stereo not drawn)", "target or system": "serotonin transporter", "test": "serotonin release, releaser", "endpoint": "EC50", "value": "410 nM"}
{"Substance": "CC(C)[C@H](N)C(=O)OCCCCCn1cnc2nc(NCc3ccc(Cl)c(Cl)c3)[nH]c(=O)c21", "target or system": "DNA polymerase III PolC-type (Bacillus subtilis, UniProt P13267)", "test": "inhibitor", "conditions": "published value", "endpoint": "Ki", "value": "250 nM"}
{"note": "Some of these lines once more (study 1):"}
{"Molecule": "LLLLISLVY", "IC50 [µM]": "> 20"}
{"Molecule": "IATLYCVHQK", "IC50 [µM]": "> 20"}
{"Molecule": "IYTVIYYIF", "IC50 [µM]": "> 20"}
{"Molecule": "ETHDRGFAM", "IC50 [µM]": 0.016}
{"Molecule": "ALFHKVQSY", "IC50 [µM]": "> 20"}
{"Molecule": "KRLLLKLDF", "IC50 [µM]": "> 20"}
{"Molecule": "HEGDIVPLF", "IC50 [µM]": "> 20"}
{"Molecule": "IEFIEVVRL", "IC50 [µM]": "> 20"}
